Published values of several laboratories.
Compare with care: the assays were run in different laboratories. “And” joins repeats or separate records; there may be more than shown. ± gives the spread as reported.

CC[C@H](C)[C@H](NC(=O)CN)C(=O)N[C@@H](CC(C)C)C(=O)N[C@@H](CC(=O)O)C(=O)N[C@@H](C)C(=O)N[C@H](C(=O)N[C@@H](CCCCN)C(=O)N[C@@H](C)C(=O)N[C@H](C(=O)N[C@@H](C)C(=O)N[C@@H](CCCCN)C(=O)N[C@@H](C)C(=O)N[C@H](C(=O)N[C@@H](CCCCN)C(=O)N[C@@H](C)C(=O)N[C@@H](CCCCN)C(=O)N[C@@H](C)C(=O)NCC(N)=O)[C@@H](C)CC)[C@@H](C)CC)[C@@H](C)CC — hemolysis (sheep red blood cells; 256 µM, 1 h, 37 °C; relative to: Triton X-100): 28%
O=S(=O)(Nc1ccc(-c2n[nH]c(=S)o2)cc1)c1ccc(C(F)(F)F)cc1 — viability (HEK293T; MTT; 100 µM, 24 h): 62% and 62.4%
C/C1=C/C(=O)O[C@@H]2C[C@@H](CC[C@H](C)/C=C\C=C\CC1)O[C@@](O)([C@@H]1CSC(=O)N1CO)C2 — lowest cytotoxic concentration (MCF7; MTT): > 1 µM
N#C[C@H](C[C@@H]1CCCNC1=O)NC(=O)[C@H](CC1CC1)NC(=O)c1cc2cccc(Cl)c2[nH]1 — mRNA level (cryopreserved human hepatocytes; measured: CYP2C19; 10 µM, 72 h; relative to: vehicle): ≤ 3.3 fold
CC(C)C[C@H](NC(=O)[C@@H](NC(=O)[C@H](CCCNC(=N)N)NC(=O)[C@H](CCCCN)NC(=O)[C@H](CCCCN)NC(=O)CNC(=O)CNC(=O)CNC(=O)c1ccc2c(c1)C(=O)OC21c2ccc(O)cc2Oc2cc(O)ccc21)[C@@H](C)O)C(=O)N[C@@H](CCCNC(=N)N)C(=O)N[C@@H](CCCCN)C(=O)N[C@@H](CC(N)=O)C(=O)N[C@@H](CC(=O)O)C(=O)N[C@@H](CCCNC(=N)N)C(=O)N[C@@H](CCCCN)C(=O)N[C@@H](CCCCN)C(=O)N[C@@H](CCCNC(=N)N)C(=O)N[C@@H](CS)C(N)=O — transport ratio (hCMEC/D3 monolayers; BBB permeability, Transwell, measured: CF-labelled compound; EGM-2 medium; concentration not given, 3 h, apical to basal; relative to: fluorescence added apically): 7.1%
CC(C)CC(=O)OC[C@H]1O[C@@](C#N)(c2ccc3c(N)ncnn23)[C@H](O)[C@@H]1O — efflux ratio (Caco-2 monolayer; 9 µM, 2 h, added: zosuquidar 25 µM): 1.46
CC(C)c1cccc(C(C)C)c1O — viability (HaCaT; 100 µM, 24 h): 93%
O=C(O)C(F)(F)C(F)(F)C(F)(F)C(F)(F)F — LDH release (hTERT-RPTEC-OAT1; concentration not given, Transwell, basolateral-to-apical addition): 14.5 mU/mL and 16.4 mU/mL and 21.1 mU/mL
CC[C@H](C)[C@H](NC(=O)[C@H](C)NC(=O)[C@H](CO)NC(=O)[C@@H](NC(=O)[C@H](CCCCN)NC(=O)[C@H](CCSC)NC(=O)[C@H](CC(C)C)NC(=O)[C@H](CO)NC(=O)[C@H](CC(C)C)NC(=O)[C@H](CCCNC(=N)N)NC(=O)[C@H](Cc1c[nH]cn1)NC(=O)[C@@H](NC(=O)[C@H](CC(C)C)NC(=O)[C@H](CC(N)=O)NC(=O)[C@H](Cc1ccccc1)NC(=O)CN)[C@@H](C)CC)[C@@H](C)O)C(=O)N[C@@H](CCCCN)C(=O)N[C@@H](CCCCN)C(=O)N[C@H](C(=O)N[C@@H](CCCNC(=N)N)C(=O)N[C@@H](CC(N)=O)C(=O)N1CCC[C@H]1C(=O)N[C@@H](CCCCN)C(=O)NCC(=O)N1CCC[C@H]1C(=O)N[C@@H](CC(C)C)C(=O)N[C@H](C(=O)N[C@@H](CC(C)C)C(=O)N[C@@H](CCCNC(=N)N)C(=O)N[C@@H](CC(C)C)C(=O)NCC(=O)N[C@@H](C)C(=O)N[C@@H](C)C(=O)N1CCC[C@H]1C(=O)N[C@H](C(=O)N[C@H](C(=O)N[C@@H](CCC(N)=O)C(=O)N1CCC[C@H]1C(=O)N[C@H](C(=O)N[C@@H](CCCNC(=N)N)C(=O)N[C@@H](CCCNC(=N)N)C(=O)N[C@H](C(=O)N[C@@H](Cc1ccccc1)C(=O)N1CCC[C@H]1C(=O)N[C@@H](CCCNC(=N)N)C(=O)NCC(=O)N[C@@H](CC(C)C)C(=O)N1CCC[C@H]1C(=O)O)C(C)C)[C@@H](C)O)[C@@H](C)O)C(C)C)[C@@H](C)CC)[C@@H](C)CC — CC50 (HaCaT; cell viability, MTT): 149 µM
CC[C@H](C)[C@H](N)C(=O)N[C@@H](CCCNC(=N)N)C(=O)N[C@H](C(=O)N[C@@H](Cc1c[nH]c2ccccc12)C(=O)N[C@@H](CCCCN)C(=O)N[C@@H](CCCCN)C(=O)N[C@@H](Cc1ccccc1)C(=O)N[C@H](C(=O)N[C@@H](CCCNC(=N)N)C(=O)N[C@@H](CCCCN)C(=O)N[C@@H](CCSC)C(=O)N[C@@H](CCCCN)C(=O)N[C@@H](C)C(=O)N[C@H](C(=O)N[C@@H](Cc1ccc(O)cc1)C(=O)N[C@@H](Cc1c[nH]cn1)C(N)=O)[C@@H](C)CC)C(C)C)C(C)C — hemolysis (rat erythrocytes; 200 µM, 60 min, 37 °C): 0.3 ± 0.1%
O=S(=O)(O)C(F)(F)C(F)(F)C(F)(F)C(F)(F)F — LDH release (hTERT-RPTEC-OAT1; concentration not given, Transwell, apical-to-basolateral addition): 17.2 mU/mL and 61.4 mU/mL and 10.5 mU/mL and 59.8 mU/mL
CC[C@H](C)[C@H](NC(=O)[C@H](Cc1ccccc1)NC(=O)[C@H](Cc1ccccc1)NC(=O)[C@@H](NC(=O)[C@@H](NC(=O)[C@H](CCCCN)NC(=O)[C@H](CCC(N)=O)NC(=O)[C@H](Cc1c[nH]cn1)NC(=O)[C@H](CO)NC(=O)[C@H](CO)NC(=O)[C@@H](NC(=O)[C@@H]1CCCN1C(=O)[C@H](C)NC(=O)[C@H](Cc1ccccc1)NC(=O)[C@H](CCCNC(=N)N)NC(=O)[C@H](CC(C)C)NC(=O)[C@H](Cc1ccccc1)NC(=O)[C@H](CCCCN)NC(=O)[C@H](C)NC(=O)CNC(=O)[C@H](CCCCN)NC(=O)[C@H](CCCNC(=N)N)NC(=O)[C@H](CCCCN)NC(=O)[C@@H](NC(=O)[C@H](Cc1ccccc1)NC(=O)[C@@H](NC(=O)[C@H](CC(=O)O)NC(=O)[C@@H](NC(=O)[C@@H](NC(=O)[C@@H](N)CCCCN)[C@@H](C)CC)[C@@H](C)O)C(C)C)C(C)C)C(C)C)C(C)C)[C@@H](C)O)C(=O)N[C@@H](Cc1c[nH]cn1)C(=O)O — CC50 (HaCaT; cell viability, MTT): 104 µM
O=C(O)C(F)(F)C(F)(F)C(F)(F)C(F)(F)C(F)(F)F — LDH release (hTERT-RPTEC-OAT1; concentration not given, 96-well plate): 4.21 mU/mL and 4.49 mU/mL and 6.24 mU/mL and 3.6 mU/mL
C=C(C)[C@H]1Cc2c(ccc3c2O[C@@H]2COc4cc(OC)c(OC)cc4[C@@H]2C3=O)O1 — IC50 (THLE-2 transduced with Ad-CYP2C9; metabolism-induced cytotoxicity; 48 h, 3D Matrigel spots): 0.3 ± 0.1 µM
COP(=O)(OC)OC=C(Cl)Cl — IC10 (MCF7 AREc32 cells; cell confluency, IncuCyte imaging; 24 h, nominal concentration): 61 µM
CC(=O)OC[C@H]1O[C@@H](Oc2cc(O)cc3cc4oc(C)cc(=O)c4c(O)c23)[C@H](O)[C@@H](O)[C@@H]1O — cell viability (HepaRG co-cultured with HK-2; MTT; 266.67 µM, 24 h; relative to: untreated control): 128 ± 15%
CC[C@H](C)[C@H](NC(=O)[C@H](CCCCN)NC(=O)[C@H](CCC(N)=O)NC(=O)[C@@H](NC(=O)[C@@H](NC(=O)[C@H](CCCNC(=N)N)NC(=O)[C@H](CCCCN)NC(=O)[C@H](Cc1ccccc1)NC(=O)CN)[C@@H](C)CC)C(C)C)C(=O)N[C@@H](CCCNC(=N)N)C(=O)N[C@@H](CC(=O)O)C(=O)N[C@@H](Cc1ccccc1)C(=O)N[C@@H](CC(C)C)C(=O)N[C@@H](CCCNC(=N)N)C(=O)N[C@@H](CC(N)=O)C(=O)N[C@@H](CC(C)C)C(=O)N[C@H](C(N)=O)C(C)C — LC50 (HEK293; cell viability, MTS; serum-free): 13 µM
Oc1ccc(C(c2ccc(O)cc2)(C(F)(F)F)C(F)(F)F)cc1 — viable cells (HepG2 spheroids, dissociated; annexin V-FITC/PI flow cytometry; 0.10 µM, 96 h): 28.5 ± 8.59%
CC[C@H](C)[C@H](NC(=O)CNC(=O)[C@H](CC(N)=O)NC(=O)[C@H](Cc1ccc(O)cc1)NC(=O)[C@H](CO)NC(=O)CNC(=O)[C@H](CCCNC(=N)N)NC(=O)[C@H](CCC(N)=O)NC(=O)[C@H](Cc1ccccc1)NC(=O)[C@H](Cc1ccccc1)NC(=O)[C@H](Cc1c[nH]cn1)NC(=O)[C@H](Cc1ccccc1)NC(=O)[C@@H](N)Cc1c[nH]c2ccccc12)C(=O)O — IC50 (HaCaT; cytotoxicity, MTT; 24 h, 37 °C): > 200 µM
O=C1c2ccccc2C(=O)c2ccccc21 — viability (HK-2 co-cultured with HepaRG; MTT; 33.33 µM, 48 h; relative to: untreated control): 62.5 ± 3.19%
CC(c1ccccc1)(c1ccc(O)cc1)c1ccc(O)cc1 — viable cells (HepG2 spheroids, dissociated; annexin V-FITC/PI flow cytometry; 0.01 µM, 96 h): 36.9 ± 11.9%
O=c1ccc2ccccc2o1 — point of departure (HepaRG 3D spheroids; glutathione content; 72 h, high-content imaging): 514 µM
CC1=C(O)C(=O)C=C2C1=CC=C1[C@@]2(C)CC[C@@]2(C)[C@@H]3C[C@](C)(C(=O)O)CC[C@]3(C)CC[C@]12C — confluence (COS-7; 3 µM, 24 h, 0.1% DMSO, unit not given; relative to: vehicle control): 0.6 ± 0.05
Cc1cc2c(c(O)c1O)C(=O)c1c(O)cc(O)cc1C2=O — cell viability (HepaRG co-cultured with HK-2; MTT; 16.67 µM, 48 h; relative to: untreated control): 95.2 ± 13.1%
CC(C)NCC(O)COc1ccc(CC(N)=O)cc1 (stereo not drawn) — IC10 (MCF7 AREc32 cells; cell viability, IncuCyte imaging; 24 h, freely dissolved concentration): 4730 µM
Nc1nc2c(ncn2COCCO)c(=O)[nH]1 — minimal cytotoxic concentration (HEL; cell morphology): > 250 µM
COc1ccc2c(c1OC)C(=O)c1c(cc(C)c(O)c1OC)C2=O — cell viability (HK-2 co-cultured with HepaRG; MTT; 66.67 µM, 48 h; relative to: untreated control): 43.7 ± 1.72%

A few entries again:
O=c1ccc2ccccc2o1 — point of departure (HepaRG 3D spheroids; glutathione content; 72 h, high-content imaging): 514 µM
CC1=C(O)C(=O)C=C2C1=CC=C1[C@@]2(C)CC[C@@]2(C)[C@@H]3C[C@](C)(C(=O)O)CC[C@]3(C)CC[C@]12C — confluence (COS-7; 3 µM, 24 h, 0.1% DMSO, unit not given; relative to: vehicle control): 0.6 ± 0.05
